# Experimental data pooled from the literature.
# Compare with care: the assays were run in different laboratories.
SMILES,technique,medium,time,pH,temperature,measurement,result
CC[C@H](C)[C@H](NC(=O)[C@H](C)NC(=O)CNC(=O)[C@H](Cc1ccccc1)NC(=O)[C@H](CC(N)=O)NC(=O)[C@H](CC(N)=O)NC(=O)[C@H](CO)NC(=O)[C@H](CO)NC(=O)[C@H](Cc1c[nH]cn1)NC(=O)[C@@H](NC(=O)[C@H](CC(C)C)NC(=O)[C@H](Cc1ccccc1)NC(=O)[C@H](CC(N)=O)NC(=O)[C@H](C)NC(=O)[C@H](CC(C)C)NC(=O)[C@H](CCCNC(=N)N)NC(=O)[C@H](CCC(N)=O)NC(=O)[C@@H](NC(=O)[C@H](C)NC(=O)[C@@H]1CSSC[C@H](NC(=O)[C@@H](N)CCCCN)C(=O)N[C@@H](CC(N)=O)C(=O)N[C@@H]([C@@H](C)O)C(=O)N[C@@H](C)C(=O)N[C@@H]([C@@H](C)O)C(=O)N1)[C@@H](C)O[C@H]1O[C@H](CO[C@]2(C(=O)O)C[C@H](O)[C@@H](NC(C)=O)[C@H]([C@H](O)[C@H](O)CO)O2)[C@H](O)[C@H](O)[C@H]1NC(C)=O)C(C)C)C(=O)N[C@@H](CC(C)C)C(=O)N[C@@H](CO)C(=O)N[C@@H](CO)C(=O)N[C@H](C(=O)N[C@@H](CC(N)=O)C(=O)N[C@H](C(=O)NCC(=O)N[C@@H](CO)C(=O)N[C@@H](CC(N)=O)C(=O)N[C@H](C(=O)N[C@@H](Cc1ccc(O)cc1)C(N)=O)[C@@H](C)O)C(C)C)[C@@H](C)O,,PBS,1 h,pH 7.4,,thermodynamic solubility,706 µg/mL
CC1COC2=C1C(=O)C(=O)c1c2ccc2c1C(OC(=O)CNC(=O)C(N)CO)CCC2(C)C (mixture of isomers),,PBS,,pH 5.5,25 °C,thermodynamic solubility,676 µg/mL
Nc1cnc(Cl)cc1NC(=O)Nc1cc(C(F)F)ns1,,PBS,24 h,pH 7.4,,kinetic solubility,0.177 mM
NC1CCN(C(=O)Oc2ccc(C3CCCC4(C3)OOC3(O4)C4CC5CC(C4)CC3C5)cc2)CC1 (racemic),,PBS,,pH 7.4,,kinetic solubility,0.0115 mM
CC1COC2=C1C(=O)C(=O)c1c2ccc2c1C(OC(=O)CNC(=O)CN)CCC2(C)C (mixture of isomers),,PBS,,pH 6.4,25 °C,thermodynamic solubility,326 µg/mL
CC[C@H](C)[C@H](NC(=O)[C@H](C)NC(=O)CNC(=O)[C@H](Cc1ccccc1)NC(=O)[C@H](CC(N)=O)NC(=O)[C@H](CC(N)=O)NC(=O)[C@H](CO)NC(=O)[C@H](CO)NC(=O)[C@H](Cc1c[nH]cn1)NC(=O)[C@@H](NC(=O)[C@H](CC(C)C)NC(=O)[C@H](Cc1ccccc1)NC(=O)[C@H](CC(N)=O)NC(=O)[C@H](C)NC(=O)[C@H](CC(C)C)NC(=O)[C@H](CCCNC(=N)N)NC(=O)[C@H](CCC(N)=O)NC(=O)[C@@H](NC(=O)[C@H](C)NC(=O)[C@@H]1CSSC[C@H](NC(=O)[C@@H](N)CCCCN)C(=O)N[C@@H](CC(N)=O)C(=O)N[C@@H]([C@@H](C)O)C(=O)N[C@@H](C)C(=O)N[C@@H]([C@@H](C)O)C(=O)N1)[C@@H](C)O)C(C)C)C(=O)N[C@@H](CC(C)C)C(=O)N[C@@H](CO)C(=O)N[C@@H](CO)C(=O)N[C@H](C(=O)N[C@@H](CC(N)=O)C(=O)N[C@H](C(=O)NCC(=O)N[C@@H](CO)C(=O)N[C@@H](CC(N)=O)C(=O)N[C@H](C(=O)N[C@@H](Cc1ccc(O)cc1)C(N)=O)[C@@H](C)O)C(C)C)[C@@H](C)O[C@H]1O[C@H](CO)[C@H](O)[C@H](O)[C@H]1NC(C)=O,,PBS,1 h,pH 7.4,,thermodynamic solubility,40 µg/mL
CN1CCCCC1C(=O)NC(Cc1ccc(-c2ccccc2)cc1)B(O)O (stereo not drawn),nephelometry,aqueous buffer,,pH 6.8,,solubility,> 0.2 mM
CC[C@H](C)[C@H](NC(=O)[C@H](C)NC(=O)CNC(=O)[C@H](Cc1ccccc1)NC(=O)[C@H](CC(N)=O)NC(=O)[C@H](CC(N)=O)NC(=O)[C@H](CO)NC(=O)[C@H](CO)NC(=O)[C@H](Cc1c[nH]cn1)NC(=O)[C@@H](NC(=O)[C@H](CC(C)C)NC(=O)[C@H](Cc1ccccc1)NC(=O)[C@H](CC(N)=O)NC(=O)[C@H](C)NC(=O)[C@H](CC(C)C)NC(=O)[C@H](CCCNC(=N)N)NC(=O)[C@H](CCC(N)=O)NC(=O)[C@@H](NC(=O)[C@H](C)NC(=O)[C@@H]1CSSC[C@H](NC(=O)[C@@H](N)CCCCN)C(=O)N[C@@H](CC(N)=O)C(=O)N[C@@H]([C@@H](C)O)C(=O)N[C@@H](C)C(=O)N[C@@H]([C@@H](C)O)C(=O)N1)[C@@H](C)O)C(C)C)C(=O)N[C@@H](CC(C)C)C(=O)N[C@@H](CO)C(=O)N[C@@H](CO)C(=O)N[C@H](C(=O)N[C@@H](CC(N)=O)C(=O)N[C@H](C(=O)NCC(=O)N[C@@H](CO)C(=O)N[C@@H](CC(N)=O)C(=O)N[C@H](C(=O)N[C@@H](Cc1ccc(O)cc1)C(N)=O)[C@@H](C)O)C(C)C)[C@@H](C)O[C@H]1O[C@H](CO)[C@H](O)[C@H](O[C@@H]2O[C@H](CO)[C@H](O)[C@H](O[C@]3(C(=O)O)C[C@H](O)[C@@H](NC(C)=O)[C@H]([C@H](O)[C@H](O)CO)O3)[C@H]2O)[C@H]1NC(C)=O,,PBS,1 h,pH 7.4,,thermodynamic solubility,3750 µg/mL
C[n+]1ccc(-c2cc[n+](C)cc2)cc1,absorbance,water,,pH 7,,solubility,2700 mM

# Some of these lines once more:
SMILES,technique,medium,time,pH,temperature,measurement,result
C[n+]1ccc(-c2cc[n+](C)cc2)cc1,absorbance,water,,pH 7,,solubility,2700 mM
